Results gathered from unrelated publications.
Each numbered part is a random draw from the data of one study; scales do not carry over between parts.
Sequence of UniProt O23661 (whole entry, looked up): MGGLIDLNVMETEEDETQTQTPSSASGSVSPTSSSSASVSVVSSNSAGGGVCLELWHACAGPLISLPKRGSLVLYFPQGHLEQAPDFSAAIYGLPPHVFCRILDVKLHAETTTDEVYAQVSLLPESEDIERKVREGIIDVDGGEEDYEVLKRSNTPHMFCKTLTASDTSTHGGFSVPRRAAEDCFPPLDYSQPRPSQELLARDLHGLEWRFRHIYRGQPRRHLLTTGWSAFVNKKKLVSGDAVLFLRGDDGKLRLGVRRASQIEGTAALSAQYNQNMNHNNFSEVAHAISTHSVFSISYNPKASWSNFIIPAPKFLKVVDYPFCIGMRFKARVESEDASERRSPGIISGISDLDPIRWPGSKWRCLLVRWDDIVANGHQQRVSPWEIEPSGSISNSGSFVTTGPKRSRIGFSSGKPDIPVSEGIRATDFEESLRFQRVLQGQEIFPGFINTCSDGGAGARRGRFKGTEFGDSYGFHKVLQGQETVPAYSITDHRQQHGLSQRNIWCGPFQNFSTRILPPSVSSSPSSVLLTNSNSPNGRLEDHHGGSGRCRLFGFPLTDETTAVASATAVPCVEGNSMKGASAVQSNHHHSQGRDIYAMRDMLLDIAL
Sequence of UniProt Q8H174 (whole entry, looked up): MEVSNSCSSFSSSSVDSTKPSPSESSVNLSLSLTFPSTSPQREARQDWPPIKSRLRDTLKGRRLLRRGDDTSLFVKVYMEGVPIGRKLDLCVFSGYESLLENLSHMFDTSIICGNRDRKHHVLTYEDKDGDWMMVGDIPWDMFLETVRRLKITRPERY
Sequence of UniProt Q9ZPY6 (whole entry, looked up): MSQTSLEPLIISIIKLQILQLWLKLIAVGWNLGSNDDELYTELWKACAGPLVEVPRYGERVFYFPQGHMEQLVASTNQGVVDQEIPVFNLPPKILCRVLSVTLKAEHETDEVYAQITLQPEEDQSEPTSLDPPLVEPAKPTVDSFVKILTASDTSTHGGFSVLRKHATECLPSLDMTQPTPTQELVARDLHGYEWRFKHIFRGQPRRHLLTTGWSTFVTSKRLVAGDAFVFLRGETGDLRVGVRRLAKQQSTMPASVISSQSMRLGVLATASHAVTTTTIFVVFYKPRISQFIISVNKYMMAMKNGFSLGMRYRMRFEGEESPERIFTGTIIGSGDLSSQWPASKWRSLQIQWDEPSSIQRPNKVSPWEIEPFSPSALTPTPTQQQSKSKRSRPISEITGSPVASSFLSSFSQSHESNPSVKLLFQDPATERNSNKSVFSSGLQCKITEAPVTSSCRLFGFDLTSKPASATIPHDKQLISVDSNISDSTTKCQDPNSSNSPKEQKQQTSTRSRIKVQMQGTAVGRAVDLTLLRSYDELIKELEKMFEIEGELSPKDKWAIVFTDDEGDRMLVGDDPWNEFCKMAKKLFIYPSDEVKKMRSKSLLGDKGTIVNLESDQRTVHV
Sequence of UniProt Q9LQE8 (whole entry, looked up): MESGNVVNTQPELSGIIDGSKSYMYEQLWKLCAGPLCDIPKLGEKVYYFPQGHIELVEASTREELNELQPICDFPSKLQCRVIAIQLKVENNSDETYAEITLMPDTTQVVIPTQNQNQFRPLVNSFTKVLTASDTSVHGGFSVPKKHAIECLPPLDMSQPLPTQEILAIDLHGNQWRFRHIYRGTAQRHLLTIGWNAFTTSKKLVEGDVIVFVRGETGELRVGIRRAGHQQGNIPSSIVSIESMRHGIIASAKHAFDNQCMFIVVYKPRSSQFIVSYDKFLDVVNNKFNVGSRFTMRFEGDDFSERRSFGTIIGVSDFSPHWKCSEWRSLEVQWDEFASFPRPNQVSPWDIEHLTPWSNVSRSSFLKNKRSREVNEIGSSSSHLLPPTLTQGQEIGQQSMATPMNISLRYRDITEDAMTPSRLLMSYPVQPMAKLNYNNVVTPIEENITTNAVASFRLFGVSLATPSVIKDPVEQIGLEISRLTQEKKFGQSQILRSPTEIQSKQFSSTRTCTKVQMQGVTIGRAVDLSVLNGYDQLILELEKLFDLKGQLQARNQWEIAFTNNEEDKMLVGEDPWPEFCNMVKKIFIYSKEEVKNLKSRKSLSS
Sequence of UniProt Q8LAL2 (whole entry, looked up): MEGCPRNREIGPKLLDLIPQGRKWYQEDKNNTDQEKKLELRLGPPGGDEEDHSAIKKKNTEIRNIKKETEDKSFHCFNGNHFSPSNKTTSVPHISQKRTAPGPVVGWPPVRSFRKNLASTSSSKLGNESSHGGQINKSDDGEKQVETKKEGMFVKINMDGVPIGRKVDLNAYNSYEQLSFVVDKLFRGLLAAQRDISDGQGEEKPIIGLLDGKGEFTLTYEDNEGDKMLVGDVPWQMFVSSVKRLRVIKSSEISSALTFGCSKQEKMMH
Sequence of UniProt Q9SKN5 (whole entry, looked up): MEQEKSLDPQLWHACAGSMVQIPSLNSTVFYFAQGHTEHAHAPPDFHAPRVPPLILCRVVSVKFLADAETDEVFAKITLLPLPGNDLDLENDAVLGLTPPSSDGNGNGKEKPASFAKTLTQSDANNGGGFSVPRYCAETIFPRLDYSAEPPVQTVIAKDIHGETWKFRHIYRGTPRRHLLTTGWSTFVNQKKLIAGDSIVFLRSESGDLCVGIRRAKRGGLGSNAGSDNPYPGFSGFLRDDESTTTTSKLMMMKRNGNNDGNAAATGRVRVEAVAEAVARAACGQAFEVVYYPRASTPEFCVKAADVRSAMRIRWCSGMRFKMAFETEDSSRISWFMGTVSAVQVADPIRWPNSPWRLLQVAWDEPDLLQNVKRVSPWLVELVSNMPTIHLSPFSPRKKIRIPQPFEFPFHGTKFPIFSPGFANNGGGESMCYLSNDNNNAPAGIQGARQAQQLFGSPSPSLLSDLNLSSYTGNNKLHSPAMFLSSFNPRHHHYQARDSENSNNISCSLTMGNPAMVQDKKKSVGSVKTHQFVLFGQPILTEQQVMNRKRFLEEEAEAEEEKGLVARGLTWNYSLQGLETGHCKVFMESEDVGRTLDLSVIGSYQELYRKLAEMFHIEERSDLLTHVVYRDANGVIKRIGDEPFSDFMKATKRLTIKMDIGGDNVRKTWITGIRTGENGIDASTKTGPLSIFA
Sequence of UniProt Q93WC4 (whole entry, looked up): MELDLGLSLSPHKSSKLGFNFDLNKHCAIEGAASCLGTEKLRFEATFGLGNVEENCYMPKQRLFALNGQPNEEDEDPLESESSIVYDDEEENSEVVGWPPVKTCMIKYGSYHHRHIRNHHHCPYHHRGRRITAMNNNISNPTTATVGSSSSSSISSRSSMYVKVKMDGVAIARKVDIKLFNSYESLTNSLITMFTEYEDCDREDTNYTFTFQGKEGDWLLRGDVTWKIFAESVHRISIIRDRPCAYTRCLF

Sample 1 — method: protein binding microarray; form: double-stranded DNA, one strand shown; medium: in vitro; tested at: not given; reference: not given; direction: higher = stronger binding; endpoint: E-score
Target: Histone acetyltransferase KAT6A, winged helix 2, GST fusion (KAT6A, Homo sapiens, UniProt Q92794, residues 85-181)
Notes: 8-mer, flanks averaged, mean of 2 arrays, mostly near background
Residues (chain): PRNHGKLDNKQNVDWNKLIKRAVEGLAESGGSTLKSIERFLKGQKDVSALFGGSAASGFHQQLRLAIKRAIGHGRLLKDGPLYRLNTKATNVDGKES
ATAGTAGC: 0.00559
TATGGGGA: -0.00177
ACCGCAGA: -0.0601
GCGAGAGA: -0.0569
ACGGCGGC: 0.17
AGGAACTG: -0.023
AGCATAAG: 0.0463
GACTTAGA: -0.124
ACCCGTCT: -0.106
AATTGAAA: -0.05
GATCCAAA: 0.144
ATTTGGGC: 0.0645
AGTACATA: -0.0183
AATGTTTG: -0.127
ATCTCCTA: -0.214
TCCGGCCA: 0.137

Sample 2 — Sequence: B1 (IAA20); method: two-hybrid; notes: weak activation fusion; direction: higher = firmer interaction; endpoint: positive tests
T1: itself; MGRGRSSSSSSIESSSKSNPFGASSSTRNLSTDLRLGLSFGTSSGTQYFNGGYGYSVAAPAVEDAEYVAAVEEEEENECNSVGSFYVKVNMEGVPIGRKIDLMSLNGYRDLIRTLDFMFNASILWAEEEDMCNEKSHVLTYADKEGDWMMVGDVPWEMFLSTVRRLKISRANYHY
B1: IAA20 (Arabidopsis thaliana, UniProt O24410); chain MGRGRSSSSSSIESSSKSNPFGASSSTRNLSTDLRLGLSFGTSSGTQYFNGGYGYSVAAPAVEDAEYVAAVEEEEENECNSVGSFYVKVNMEGVPIGRKIDLMSLNGYRDLIRTLDFMFNASILWAEEEDMCNEKSHVLTYADKEGDWMMVGDVPWEMFLSTVRRLKISRANYHY
IAA31 (Arabidopsis thaliana, UniProt Q8H174); reference: out of 2 tests: 0
ARF10 575-693 (Arabidopsis thaliana, UniProt Q9SKN5); reference: out of 4 tests: 0
ETT (Arabidopsis thaliana, UniProt O23661); reference: out of 4 tests: 1
IAA26 (Arabidopsis thaliana, UniProt Q8LAL2); reference: out of 2 tests: 1
ARF11 500-622 (Arabidopsis thaliana, UniProt Q9ZPY6); reference: out of 4 tests: 0
IAA30 (Arabidopsis thaliana, UniProt Q9M1R4); reference: out of 4 tests: 2
ARF14 497-605 (Arabidopsis thaliana, UniProt Q9LQE8); reference: out of 2 tests: 0
T1, itself; reference: out of 4 tests: 1
IAA29 (Arabidopsis thaliana, UniProt Q93WC4); reference: out of 4 tests: 1

Sample 3 — method: protein-binding microarray; form: double-stranded DNA, one strand shown; medium: in vitro; tested at: 0.8 µM; notes: whole 60-bp probe, no competitor; direction: higher = stronger binding; endpoint: fluorescence intensity; constant ends, left off below: … GTCTTGATTCGCTTGACGCTGCTG
Target: Centromere-binding protein 1, full length, N-terminal tag (CBF1, Saccharomyces cerevisiae, UniProt P17106, residues 1-351)
Sequence of UniProt P17106 (whole entry, looked up): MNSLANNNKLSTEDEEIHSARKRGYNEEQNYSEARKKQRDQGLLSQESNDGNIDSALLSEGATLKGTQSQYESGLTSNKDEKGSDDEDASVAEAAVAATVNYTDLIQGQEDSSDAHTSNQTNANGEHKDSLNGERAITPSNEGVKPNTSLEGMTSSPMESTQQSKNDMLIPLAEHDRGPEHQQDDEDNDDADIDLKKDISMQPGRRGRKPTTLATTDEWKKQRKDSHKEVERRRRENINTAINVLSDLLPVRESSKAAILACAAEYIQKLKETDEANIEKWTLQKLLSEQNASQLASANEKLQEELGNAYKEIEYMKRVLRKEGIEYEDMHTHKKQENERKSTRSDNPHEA
CTAATTTAGGTAGACGTGGTGATCAATTGAAGTTTC: 547 a.u.
CTAGTACAAATAAGTCACATGATGATATTTGATTTC: 6650 a.u.
GAATTTTGTGATGGCCACGAGGGTCCTTTCACTTAG: 550 a.u.
CTACGTGTCACTGTGCACGAGCAACGAAAAACTTTC: 950 a.u.
GAACGGTCCGGGTGACACGTCCGCCGTGCTTCATAG: 518 a.u.
GAATTTCTTAATGATGATGGCGTCTGTCTGACATAG: 527 a.u.
CCTAACTACTATAACCATGTGACATAGCTTCGTACA: 3020 a.u.
GAAGTAGAATACGCACACGTGTACGCATGCTCCTAG: 5060 a.u.
TGTACGAAGCTATTACACATGGCTATAGTAGTTAGG: 560 a.u.
CTAAGTAATAGCGATCACGTGATTATCCGTGGATTC: 40400 a.u.
CCTAACTACTATAATAACATCACATAGCTTCGTACA: 518 a.u.
CTATGACAAATATTTGATGTTACCGAAATAGCATTC: 501 a.u.
GAATCGGAAGAACACCACATGATGCAAGTTCTCTAG: 863 a.u.
CTAAGTCTCTGGAAAAACGTGCTATTTAACGGTTTC: 742 a.u.
CTATAGGTTCACATCCATGTGCACTGGTGCTGCTTC: 623 a.u.
CTACGTCTGCTCTTCCACGTTCAGATGTTCCCTTTC: 521 a.u.
GAAGTTCAACAAAGGCACGCCTTTGGTAGAAGATAG: 503 a.u.
CTAATCCTATTTTAAAACGTGAATATTCCAAGATTC: 616 a.u.
CTATATATATATATGTGCGTGCGTGTGTGTGTGTTC: 1060 a.u.
GAACGATTATATACTAACATCATGTACAAAACATAG: 557 a.u.
CTAAGCGAGTCAGAGCACATGTTTAGACAATATTTC: 808 a.u.
CCTAACTACTATACCATCGTGCAATAGCTTCGTACA: 552 a.u.

Sample 4 — method: RNA Bind-n-Seq; form: RNA; medium: in vitro; tested at: 365 nM; reference: no-protein control; direction: higher = stronger binding; endpoint: RBNS enrichment (R)
Target: RNA binding protein fox-1 homolog 2, RRM domain, GST-SBP tag (RBFOX2, Homo sapiens, UniProt O43251-10, residues 100-194)
Notes: natural RNA segment, single round, ends assumed
Constant ends, left off below: GGGAGUUCUACAGUCCGACGAUC … UGGAAUUCUCGGGUGCCAA
Target sequence (chain): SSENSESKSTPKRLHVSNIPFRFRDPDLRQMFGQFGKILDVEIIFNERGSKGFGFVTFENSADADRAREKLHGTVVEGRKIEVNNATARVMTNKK
UUGGGAAACGUUUUAACAUCUGGAGCCUUUGUGGGUGGAAAUAUGUCUCCAGUUACAACUCCGCAGUGGAUGUGAAGAAGCAAAAAAAAAAAAAUCUAUUCAGUCUACUC: 0.477
UGCAGAAGCCAGAUCUGGGCGCCUGAACCCAAAACCUCGGUGGGCCACGCUCCCAGCAGCCCACAUCUCCGGAGCCUGAGCCUCACCCCAGGAGGGAGCGCCAUCAGAAC: 0.381
CUGGAGCAGUGUGCUGCGUAGUUCGGCCUGAGUUUGUGCAGCUUGUUAAGACAACUCUUGUGUACGCUAUGUUGAAGCUCAACAAAAAAGUCAUGGGACCACUUCUAGAA: 0.822
UGACUUACUCACCCUUGUACAGUGUUUGCAUAGCAGAGUGAAGGUUACUUAUUACCCUCUUUCUCUCAAGUGCUUUAAAGAAGAAACCUCCCUGGUGUUUCUUUUCUUUU: 0.41
AAAACAAAAGCUAAAAUAAAAGCAUCAGAUUUAGACUGGCGCUGUGCCCUCUACCACUAUAUGCCAAAAAUUGCUUCUCUAGUGCCAUUUUGAUAUUAUAUCUAGCUAUA: 0.456
UUUUUGGCCCCUAUUGAGGAUGAAAUGUCUCUCAUUUAGUAUAAACAGUAACAGCCCACGGCAGUGUGACCUUCUAAACUUCAGCGAAGUCACUGGUGGCUUUAAAUAAC: 0.45
GUAGGGGACCCCUGCGGUUCCAGCCUCUUAGCCUUGGUUUGUUGGUCACAUAGCACUGUUAAAUUUAUCCGAGGCAUAAGUAGUUCCUAGAGGAGACAGUCUAUCACUCC: 0.286
UUAUAUAUAUAUAUCUAUUUAUUUUAUAUGUGUGUUUGUGAGGAAGAGGAUAUUUGUCAUUUCCUUAAGGCUCUGGAGUGUUGUGUUCGAUUCUGCACAGCCCAGCCUCC: 0.435
GUAAAUUUGAAGUCAUUGUUAUAAAAUAAUAAAGUGGAGAUUACUUAAGUAUUUAAAUUAUGAAAGAAUAAUGCAGACUUUUUAUUGUUUCUUAACUGACUAGAAAGAGC: 0.632
ACUAUAAUAUGGAUCAUCUCUACUUCUGUAUUUAUUUAUUUAUUACUAGACCUCAACCACAGUCUUCUUUUUCCCCUUCCACCUCUCUUUGCCUGUAGGAUGUACUGUAU: 3.62
AAACUUCAGAGAAGAACCUUAAAGCAGACCAUCCAUUUUUGCAUGCUCUCUUCUAAGUAGAAUGUUCAAUGUAACUAAAACUAAAAUUGCAUGUCAAAGAGACCUAGGUU: 9.17
CCUCCCAGCAGAAAGCUCUGCUUGGCUUUUGGUGCACUGCUCACCCCCAGCUCCACUGGCCCAAGUCUGAGCCUGGGGCCCUUGCUUUGAGGGGCCAGUCCGAGUUGGAU: 0.294

For quick reference, copied from above (sample 1):
AGGAACTG: -0.023
ATCTCCTA: -0.214
GATCCAAA: 0.144
ATTTGGGC: 0.0645
GCGAGAGA: -0.0569
GACTTAGA: -0.124
AATTGAAA: -0.05
ATAGTAGC: 0.00559
TATGGGGA: -0.00177
ACCGCAGA: -0.0601
